Measured values collected from several papers.
Lines come from different studies, so protocols differ. ± gives the spread as reported.
Matrix: plasma

| SMILES | assay | system | conditions | MRT [h] |
| --- | --- | --- | --- | --- |
| CC(C)NC(=O)COc1cccc(-c2nc(Nc3ccc4[nH]ncc4c3)c3ccccc3n2)c1 | – | male C57BL/6 mouse | oral, 100 mg/kg | 5.78 |
| CCN(CC)Cc1cc(Nc2ccnc3cc(Cl)ccc23)ccc1O | – | rat, Wistar, male | oral, 60 mg/kg, together with: myricetin 5 mg/kg iv | 6.32 ± 0.85 |
| CC(C)=CCC[C@](C)(O[C@@H]1O[C@H](CO)[C@@H](O)[C@H](O)[C@H]1O)[C@H]1CC[C@]2(C)[C@@H]1[C@H](O)C[C@@H]1[C@@]3(C)CC[C@H](O)C(C)(C)[C@@H]3[C@@H](O[C@@H]3O[C@H](CO)[C@@H](O)[C@H](O)[C@H]3O)C[C@]12C | – | Sprague Dawley rats, male | oral, 25 mg/kg, aqueous solution, together with: co-dosed pure ginsenoside mixture | 10.9 ± 5.1 |
| O=c1c(O)c(-c2ccc(O)cc2)oc2cc(OS(=O)(=O)O)cc(O)c12 | – | FVB mice, male, Mrp1^−/− | oral, 10 mg/kg of kaempferol | 0.955 ± 0.398 |
| C=C1[C@H](CO)[C@@H](O)C[C@@H]1n1cnc2c(=O)[nH]c(N)nc21 | – | male Sprague-Dawley rat | oral, 1 mg/kg, together with: CdG 1 mg/kg | 1.97 ± 0.56 |
| Nc1ccn([C@@H]2O[C@H](CO)[C@@H](O)C2(F)F)c(=O)n1 | – | male BALB/c mouse | intravenous, 38 µmol/kg | 0.41 |
| CC(C)=CCC[C@](C)(O[C@@H]1O[C@H](CO)[C@@H](O)[C@H](O)[C@H]1O)[C@H]1CC[C@]2(C)[C@@H]1[C@H](O)C[C@@H]1[C@@]3(C)CC[C@H](O[C@@H]4O[C@H](CO)[C@@H](O)[C@H](O)[C@H]4O[C@@H]4O[C@H](CO)[C@@H](O)[C@H](O)[C@H]4O)C(C)(C)[C@@H]3CC[C@]12C | – | Sprague Dawley rats, male | oral, 42 mg/kg, aqueous solution, together with: co-dosed pure ginsenoside mixture | 11.9 ± 4.6 |
| CO/N=C1\C[C@]2(C[C@@H]3C[C@@H](C/C=C(\C)C[C@@H](C)/C=C/C=C4\CO[C@@H]5[C@H](O)C(C)=C[C@@H](C(=O)O3)[C@]45O)O2)O[C@H](/C(C)=C/C(C)C)[C@H]1C | HPLC, non-compartmental | Corriedale lambs, parasitized | oral, 0.2 mg/kg | 85.9 ± 21.6 |
| COc1cccc(N2CCN(C3=Nc4c(F)cccc4[C@H](CC(=O)O)N3c3cc(C(F)(F)F)ccc3OC)CC2)c1 | UHPLC-MS/MS | healthy women | intravenous infusion, 960 mg single dose, 60 min infusion, HPβCD formulation | 6.74 ± 1.21 |

Repeated from above:
| SMILES | assay | system | conditions | MRT [h] |
| --- | --- | --- | --- | --- |
| C=C1[C@H](CO)[C@@H](O)C[C@@H]1n1cnc2c(=O)[nH]c(N)nc21 | – | male Sprague-Dawley rat | oral, 1 mg/kg, together with: CdG 1 mg/kg | 1.97 ± 0.56 |
